# Results gathered from unrelated publications.
# Parts stem from different laboratories: compare values within a part only. Positions count from the first letter of the parent shown.

# Block 1 — technique: RNA Bind-n-Seq; form: RNA; matrix: in vitro; concentration: 365 nM; reference: no-protein control; direction: higher = stronger binding
# Target: RNA binding protein fox-1 homolog 2, RRM domain, GST-SBP tag (RBFOX2, Homo sapiens, UniProt O43251-10, residues 100-194)
# Setting: natural RNA segment, single round, ends assumed
# Constant ends, left off below: GGGAGUUCUACAGUCCGACGAUC … UGGAAUUCUCGGGUGCCAA
# Target sequence (chain): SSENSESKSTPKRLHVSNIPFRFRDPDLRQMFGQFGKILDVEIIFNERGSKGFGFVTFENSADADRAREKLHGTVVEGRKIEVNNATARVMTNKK
Strand,RBNS enrichment (R)
AAAAUAAACAUACAAUAUCCAAAAAUAUAUUCUUUUCACAUAUUCAGUGUCUCCUAACAAACUAGUACUGGACUUACAGUACUGCCAAAUCUUUGUUAAGUUUCAUGAUG,0.432
CCCAGGGCCCGGGGUCCACAGAGGAUGAGGGUUGUGGCAGGGCCGUCCAUCAGCGCUGACCUUCCGGGGGCCCAGAGCUUCCCAGCCCUGAGUCAAGCUGGCCAUGAACG,0.523
GCCAAGUGGAUGCUUUUCAGUAACAGUGAAGUGGAGUGAAUACCAAAUGUUUGCCCUGGUGGUUCCUAUCUCUUCAGGCAAACAUGGUCAGUAUUCUGUAAAGUUCCCCU,0.3
GAAGUUCUGCCUCUGAUGUAUUUUGUGAGUUUGUUUCUUUGAAUUUUCAUUUUACAGUUACUUUUCCUUGCAUACAAACAAGCAUAUAAAAUGGCAACAAACUGCACAUG,0.451
AUAUUUAGAAACUCAAAAUCAUGUCCUCUUCCACCGGCAGCAAUAUAGUGGAGAAACCAGAAAGAAACUGAGCCCUAGGCUGGGCAUUCCCACUGCAGUGGACCUACUCG,0.546
UAUGUUGGGAAUGGUAAAAAGGUUUUCAAAUGGUUUAUUUUUCCUCUUUUAUAAAUAAGUUUUACAAAAUUUUCCUCUUUUGUUUAUUGACUAGAUUGUAUAUAAUUUUC,1.55
CAAACGGAAGAAUUAGAGACGUCCUACAAGGCAGAUUCAGACCAAUAUUUCUUCGUAUAGUUUAUUCUUUCUUUUAUAUAUUAUCUAAAUAUAUGUAUAUGUUGUGUAAU,0.692
GAAUCCAUACUAAAGGGGGACUUGAGGGUGUGUACCCUACAGGCCAGCCUUCCACAUCGUGUCAGUGUUGGCUGCCCAGGUUGGAAGCGAAGACUUGAUUGAUAGCAUGG,3.59
UGAAUGCUGCUGCUGAGACUGAAGACCAGUAUUUCAGAACUUUGAGAAUUGGAGAGCAGGCACAUCAACUGAUCUCAUUUCUAGAGAGCCCCUGACAAUCCUGAGGCUUC,0.568
CCUGCAGGUCUGCCCGCCUGCCAAUCGGAGCACAGCUGGACUGUGUGGCUGGGGCCUGACACUGAGCUGUAGGGAAACUGAACUGUGAGGACCUCUGGUGAGAGGCCAGU,0.762
AAUAUGUAAUCAACUGCAUUGUAUCUAAAGCCUUAGAACUAGUCAGGUGCUCCCUCCACCCAAUACCAUUUCUUACCCUCUAAUCCUACCUGAUCUUUAACAAAGCAUUA,0.417
CCCGGAAGGCCGAGUUCUGGUAUUGCUGAGGUUGCCCUGACAUAGCUUUCCAUGUAUCCUGUUAUUUCUGAAUCCACCUUACCUCAUGUCCUCAGAGUACCUAUAAACAC,0.623

# Block 2 — target: CCND1, cyclin fold, Cln2 fusion (human); technique: yeast growth competition, sequencing; matrix: yeast; setting: weak parent motif; reference: not given; direction: higher = stronger binding
# Starting sequence: E2F7 docking peptide (human); SSAQRRLEIPSGG; partner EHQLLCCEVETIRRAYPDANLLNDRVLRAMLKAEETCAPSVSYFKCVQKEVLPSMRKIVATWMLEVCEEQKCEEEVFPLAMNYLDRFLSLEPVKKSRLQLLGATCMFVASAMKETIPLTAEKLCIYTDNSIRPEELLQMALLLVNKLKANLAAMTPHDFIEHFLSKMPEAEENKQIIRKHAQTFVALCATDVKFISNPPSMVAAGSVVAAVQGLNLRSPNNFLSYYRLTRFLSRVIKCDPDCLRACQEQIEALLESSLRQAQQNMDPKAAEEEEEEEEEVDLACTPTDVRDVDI
Substitution,normalised enrichment score
SSAQRRLAIPSGG [E8A],-0.0574
SSAQARAEIPSGG [R5A L7A],0.26
ASAQRRLEIPSGG [S1A],0.231
SSAQARLEIPSGG [R5A],0.832
SSAQRALEIPSGG [R6A],-0.337
SSAQKRLEFPSGG [R5K I9F],0.868
SSAQKRLEIPSGG [R5K],-0.318
SSAQRRLEIPAGG [S11A],-0.0244
SSAQKRLELPSGG [R5K I9L],-0.0698
SAAQRRLEIPSGG [S2A],-0.204

# Block 3 — technique: universal PBM; form: double-stranded DNA, one strand shown; matrix: in vitro; concentration: not given; direction: higher = stronger binding
# Target: Sal-like protein 4, full length isoform B (SALL4, Homo sapiens, UniProt Q9UJQ4-2, residues 1-616)
# Setting: 8-mer, flanks averaged, mean of replicates
Strand,E-score
GTGGCAGA,-0.235
ACTAAGGC,-0.117
ATTCCCAA,0.293
GGACAACA,-0.048
CACCAGAC,-0.254
AATCTATG,0.206
GGGATTAC,-0.153
GATATCGA,0.14
CAGCACCC,-0.333
TGTTCGAA,0.0178
GTGCGCAA,-0.11
ACGACCAA,0.0178
CTATAAAG,0.191
CTACGTTA,0.142
ATTTCATA,0.383
CCTCCTAC,-0.249
GAACGCAC,-0.127
CCGATCCA,-0.0958
ACCACGAT,0.0616
CCTGTGCC,-0.189
CTTTTTTA,0.167
ACGAAAGT,0.0761
ATAAAAAT,0.408
CGTCCGAC,-0.287
CTCGGCGA,-0.243

# Block 4 — technique: RNA Bind-n-Seq; form: RNA; matrix: in vitro; concentration: 200 nM; setting: whole 134-nt RNA, ends assumed; with: 150 mM KCl; reference: input library; direction: higher = stronger binding
# Target: Ras GTPase-activating protein-binding protein 1, full length (G3BP1, Homo sapiens, UniProt Q13283)
# Sequence of UniProt Q13283 (whole entry, looked up): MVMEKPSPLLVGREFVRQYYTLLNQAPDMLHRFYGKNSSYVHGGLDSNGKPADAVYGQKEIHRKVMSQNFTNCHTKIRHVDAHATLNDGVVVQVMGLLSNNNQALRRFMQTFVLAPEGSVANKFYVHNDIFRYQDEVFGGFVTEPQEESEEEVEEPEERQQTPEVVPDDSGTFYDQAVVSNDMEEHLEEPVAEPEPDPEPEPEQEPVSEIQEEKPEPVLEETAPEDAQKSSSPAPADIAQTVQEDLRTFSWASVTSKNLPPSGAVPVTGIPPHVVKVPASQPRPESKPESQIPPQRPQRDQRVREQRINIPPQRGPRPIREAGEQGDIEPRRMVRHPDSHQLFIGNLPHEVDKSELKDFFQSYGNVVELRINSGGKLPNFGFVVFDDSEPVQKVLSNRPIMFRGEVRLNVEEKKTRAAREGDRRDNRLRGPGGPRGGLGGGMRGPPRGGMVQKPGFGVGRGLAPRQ
# Constant ends, left off below: GGGAGUUCUACAGUCCGACGAUC … UGGAAUUCUCGGGUGUCAAGG
Strand,log2 enrichment
UUGCAGCAACUGCUACCAGCCUCCCAGUCCACACAGCUGCCAUGCUCAAGUUCCCCUCAGGAGACCACCCAGUCUCGCCCUAUGCCGCCG,0.346
CCUCAAGUCCUGUGCUACACAUCGUAUGUACCGAAUCGGAAGGAAGGGAAGGGAAAGUAUUAUGUUACGCCGUUCGGAUCUGCACUUCCA,-0.484
AGUCCUGUGCUACACAUCGUAUGUACCGAAUCGGGUUUUUGGGUUUUUGGUUUUUGGAAAGUAUUAUGUUACGCCGUUCGGAUCUGCACU,-1.16
GUCCUGUGCUACACAUCGUAUGUACCGAAUCGGGGAAAGGGGUGGGGUUUUUUUGGGGAAAGUAUUAUGUUACGCCGUUCGGAUCUGCAC,0.47
CUCAAGUCCUGUGCUACACAUCGUAUGUACCGAAUCGGGUGGGUUUGGGAGGGAAAGUAUUAUGUUACGCCGUUCGGAUCUGCACUUCCA,1.11
CUGUGCUACACAUCGUAUGUACCGAAUCGGGCCCCCCCGGCCCCCCCGGGCCCCCCCGGGGAAAGUAUUAUGUUACGCCGUUCGGAUCUG,-0.78
CACAGACAACACGCACCCACACAGACACAGAGGGAGGGGGUUGGGAUGGGGACAGGGUGCACAGCAGGGCGGGGUAGGACCCCAGCCCCU,1.66
GCAGGAAGUAAAAACAAAUGGAAAUGCUUCGGAUAGUGGGAGGGGUGGGGGUUGCUAAGGAAAGGGUGGGAUGGGAGUGGGUAAAGAGUU,1.02
CUGUGCUACACAUCGUAUGUACCGAAUCGGGGAAAAAGGGGUUUUUGGGGUUUUUUUGGGGAAAGUAUUAUGUUACGCCGUUCGGAUCUG,-0.23
UCAAGUCCUGUGCUACACAUCGUAUGUACCGAAUCGGGUGGGUGGGUUUUUGGGAAAGUAUUAUGUUACGCCGUUCGGAUCUGCACUUCC,0.469
CCUGUGCUACACAUCGUAUGUACCGAAUCGGGAAAAAAAGGGUUUUUGGGAAAAAAAGGGAAAGUAUUAUGUUACGCCGUUCGGAUCUGC,-0.834
AAGUCCUGUGCUACACAUCGUAUGUACCGAAUCGGGUUUGGGUUUUUGGGUUUGGGAAAGUAUUAUGUUACGCCGUUCGGAUCUGCACUU,0.278
UCCUGUGCUACACAUCGUAUGUACCGAAUCGGGGAAAAAGGGGAAAAAAAGGGGUGGGGAAAGUAUUAUGUUACGCCGUUCGGAUCUGCA,0.657
AGUCCUGUGCUACACAUCGUAUGUACCGAAUCAAACCCCCAAACCCAAACCCCCAAAAAAGUAUUAUGUUACGCCGUUCGGAUCUGCACU,-0.678

# Block 5 — technique: protein binding microarray; form: double-stranded DNA, one strand shown; matrix: in vitro; concentration: not given; reference: not given; direction: higher = stronger binding
# Target: Histone acetyltransferase KAT6A, both winged helices, GST fusion (KAT6A, Homo sapiens, UniProt Q92794, residues 1-181)
# Setting: 8-mer, flanks averaged, mean of 2 arrays, mostly near background
# Construct (chain): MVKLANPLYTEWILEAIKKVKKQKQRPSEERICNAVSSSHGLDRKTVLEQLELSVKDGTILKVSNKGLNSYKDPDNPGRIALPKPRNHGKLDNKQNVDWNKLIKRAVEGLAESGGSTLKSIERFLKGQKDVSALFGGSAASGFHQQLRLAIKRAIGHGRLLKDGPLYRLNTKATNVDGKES
Strand,E-score
ACAGTCCA,-0.346
GCGAAGCA,0.073
CAGATCAG,-0.132
ACAGGACG,0.115
ACGTGCGA,0.052
TGTCAACA,-0.0285
GTACTACA,-0.177
ATCCTGTA,-0.212
CGGGTGCC,0.287
AGTGGTGG,-0.249
AACAGTGC,-0.00252
TTATCAAA,-0.00402
AAGTCACG,0.0349
AATAACTG,-0.0405
TCCTACAA,-0.143
ATGTGGGG,-0.194
ATAAGGAA,-0.183
CCGCAGAA,0.289
AACTCCGC,0.096
ATTACGTA,0.0378
GCCAAAAA,-0.12
TCAATGAA,-0.1
ACTGTAAC,-0.0736
TGCCGCCA,0.242

# Some of these lines once more (block 3):
Strand,E-score
ATAAAAAT,0.408
GTGCGCAA,-0.11
ACGACCAA,0.0178
GGACAACA,-0.048
CTTTTTTA,0.167
CACCAGAC,-0.254
